Measured values collected from several papers.
Each numbered part is a random draw from the data of one study; scales do not carry over between parts. Substitutions count along the parent as printed.

Block 1
Target: RNA binding protein fox-1 homolog 2, RRM domain, GST-SBP tag (RBFOX2, Homo sapiens, UniProt O43251-10, residues 100-194)
Method: RNA Bind-n-Seq
Molecule type: RNA
Medium: in vitro
Concentration: 365 nM
Notes: natural RNA segment, single round, ends assumed
Baseline: no-protein control
Direction: higher = stronger binding
Constant ends, left off below: GGGAGUUCUACAGUCCGACGAUC … UGGAAUUCUCGGGUGCCAA
Target sequence (chain): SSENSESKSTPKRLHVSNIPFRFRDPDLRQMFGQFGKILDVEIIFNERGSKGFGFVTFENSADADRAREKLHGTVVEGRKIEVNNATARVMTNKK
Under “RBNS enrichment (R)”, `GCAGGGGGCAGGGUGGGGCCUGAGAGUGGCUUCAAGUCGGCAGGGUUCUGCUGCCCCUGAUGCUCAUGGGUCUGUCCCGGGGAAAGAGGCAAGCAGGAGGCUGAGCCAGG` is recorded as 0.685.
For `AGUUCAAAAGUCAGGUGCUGAGAGAUGGUUUAAAGACAAAUUCAUGAAGGUAUAUUUUGUGUUAUAGUUGUUGAUGAGUUCUUUGGUUUUCUGUAUUUUUCCCCCUCUCU`, “RBNS enrichment (R)” read 0.399.
Under “RBNS enrichment (R)”, `CAGGUAUAAAACAGUUGUUUUCUAAAAACAUGCAUUUAGUAUGGCAUUCUCUUUUAGCAACUGAAUUCCCAACGAGUUUUAUUAAGCUGGAUAUCGAAAUGAAGGAGCUG` is recorded as 0.416.
`CUAGACUUUGAUUUCCUUAAUAGCCCAUUUCUGUUAACCUCUUAUCACUAAGAAAGAAAGGAAAGAAGGAGAUGAAUAGAAGAAAGAAAAUGGAAAGAAGGAAAAAAGGA`: “RBNS enrichment (R)” 0.356.
`ACAGUCCCUGGAAUUAACAGAUCAGAAUGUUCACACUGGUUAAUCUUUUUUUAACAAUGAGCAUGAAGGUAGCAGAAGCUGGUGUGUUUCCAGAUGGUUCUUCUAACCAA`: “RBNS enrichment (R)” 2.76.
Under “RBNS enrichment (R)”, `UGGGCUCAUUGUGACCACUGGCCUCUCUACAGCACGGCCUGUGGCCUGUUCAAGGCAGAACCACGACCCUUGACUCCCGGGUGGGGAGGUGGCCAAGGAUGCUGGAGCUG` is recorded as 0.416.
For `CUGAUGAGUGCUGAUGGGCUAACCCUACCCUGUACAAGGGCUCAUAAGGCUACUAAGCAUUAGGGCCAAUUAAAGAAUUUUAGUUUCCCUUUCUCAGACAAAUAGCUUUU`, “RBNS enrichment (R)” read 0.276.
For `ACUCAGAACAAUUUAACUUGCUAAUUAUAUCACCUUCCAGAUUGGAGAAAGGAGACAGUAAGGUAUUUUGCCUGCCUUGUGAUGCCCUCCCCUGACCACCCUACCUUUUU`, “RBNS enrichment (R)” read 0.863.
Under “RBNS enrichment (R)”, `AGGCAAGCUCAAAUUAACCUUUUGCCAUCAAACCUUGUAGCCGUCUUGGCAUGAAGGCAUGUUUUCCUUCUGGGGGUGGUGACAUGCCCUCCAGACGGCCUGCCAUCCAG` is recorded as 1.78.
For `CUAAAUUAACAGUGGAAAAUACUUUUCUGUAAACAGCCAGGGUAAUAAAAACCAUGAACUAAUUGUAUUUUAUCUAUUUGGUUCAUCCUGCAAUAGCGGAAUUAUACAUA`, “RBNS enrichment (R)” read 0.397.
`CAGAACUGCCCCCACUGUCCCCCUACCCACCGAUGGAGCCCCCAGAUAGAGCUGGGUGGCCUGUUUCUGCAGCCCUUGGGCAGUUCUCACUCCUAGGAGAGCCAACCUCG` — result for “RBNS enrichment (R)”: 0.406.
For `CAGGGAGGGAAUGAUAUAAUUUUCAUGACAAUGUCAUGUGAUGAUAGAAUUUCUCCAUUGAUGAAUCUCUAGUAUGUGUGUAUACUUUAUUUACCCAUACGUAUAUUUUA`, “RBNS enrichment (R)” read 0.318.

Block 2
Target: Histone acetyltransferase KAT6A, both winged helices, GST fusion (KAT6A, Homo sapiens, UniProt Q92794, residues 1-181)
Method: protein binding microarray
Molecule type: double-stranded DNA, one strand shown
Medium: in vitro
Concentration: not given
Notes: 8-mer, flanks averaged, mean of 2 arrays, mostly near background
Baseline: not given
Direction: higher = stronger binding
Construct (chain): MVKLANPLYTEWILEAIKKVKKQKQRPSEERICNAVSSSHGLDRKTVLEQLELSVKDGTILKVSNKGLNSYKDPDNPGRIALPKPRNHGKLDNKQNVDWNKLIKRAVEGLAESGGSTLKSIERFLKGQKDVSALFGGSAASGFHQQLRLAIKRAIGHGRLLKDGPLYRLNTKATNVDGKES
With `GTCCCGAC` the E-score was 0.177.
`GAGTGTCC` has an E-score of -0.0699.
The E-score of `ACGTCCGA` is reported as 0.115.
The E-score of `CCCTGCCC` is reported as -0.111.
For `GACAGCGA`, the E-score was 0.0632.
The E-score of `CACCCGCC` is reported as 0.192.
`ACTACCCA` gave an E-score of -0.227.
`AGGTCGCC` gave an E-score of 0.0923.
`ACCAAGGC` has an E-score of 0.0522.

Block 3
Target: CCNB1, cyclin fold, Cln2 fusion (human)
Method: yeast growth competition, sequencing
Medium: yeast
Notes: weak parent motif
Baseline: not given
Direction: higher = stronger binding
Parent: SLBP docking peptide (human); ARYKRKLLINDFG
For `AWYKRKLLINDFG [R2W]`, “normalised enrichment score” read 0.491.
`ARQKRKLLINDFG [Y3Q]`: “normalised enrichment score” 0.464.
For `ARYKRKLLINHFG [D11H]`, “normalised enrichment score” read 0.809.
Under “normalised enrichment score”, `ARYKRKLLINDFA [G13A]` is recorded as 0.0123.
`ARYKRKLLINDRG [F12R]`: “normalised enrichment score” 1.37.
`VRYKRKLLINDFG [A1V]`: “normalised enrichment score” 1.01.
`PRYKRKLLINDFG [A1P]` — result for “normalised enrichment score”: 0.388.
For `ARLKRKLLINDFG [Y3L]`, “normalised enrichment score” read 1.37.
`ARYKRKLLINDMG [F12M]`: “normalised enrichment score” 0.0695.
`ARYQRKLLINDFG [K4Q]`: “normalised enrichment score” -0.00373.
Under “normalised enrichment score”, `ARYKRKLLIFDFG [N10F]` is recorded as 0.224.
`ARYKRKLLINDFT [G13T]`: “normalised enrichment score” 0.435.

Single results of other studies
With `PhoQ, residues 284 288 289 292 302 303 AMDMFI` the fold induction was 0.72 (PhoP, residues 12 14 15 18 19 AQALL (Escherichia coli, UniProt P23836); Sort-seq, measured: YFP reporter; E. coli; PhoQ-PhoP variant library, added: 10 µM Mg2+; baseline: high Mg2+ state, higher = stronger signaling).

For quick reference, copied from above (block 1):
Under “RBNS enrichment (R)”, `CAGGUAUAAAACAGUUGUUUUCUAAAAACAUGCAUUUAGUAUGGCAUUCUCUUUUAGCAACUGAAUUCCCAACGAGUUUUAUUAAGCUGGAUAUCGAAAUGAAGGAGCUG` is recorded as 0.416.
`CUAGACUUUGAUUUCCUUAAUAGCCCAUUUCUGUUAACCUCUUAUCACUAAGAAAGAAAGGAAAGAAGGAGAUGAAUAGAAGAAAGAAAAUGGAAAGAAGGAAAAAAGGA`: “RBNS enrichment (R)” 0.356.
